Assay results from different studies.
Every numbered part comes from another study and shows a few of its results, in no order. “And” joins repeats or separate records; there may be more than shown.

Study 1 — quantity: inhibition
Structure (SMILES): C[C@@H]1[C@H](O)[C@@H](C)/C=C/C=C/C=C/C=C/C=C/C=C/C=C/[C@H](O[C@@H]2O[C@H](C)[C@@H](O)[C@H](N)[C@@H]2O)C[C@@H]2O[C@](O)(C[C@@H](O)C[C@@H](O)[C@H](O)CC[C@@H](O)C[C@@H](O)CC(=O)O[C@H]1C)C[C@H](O)[C@H]2C(=O)O
THP-1; host cell growth; 10 µM: 102%
Leishmania donovani; parasite growth, imaging; THP-1; 4 nM, intracellular, amastigote: 0%
THP-1; host cell growth; 0.4 µM: -0.96% and -0.42% and -2.06% and 0.81% and -2.2%

Study 2 — read-out: enzyme activity; action: inhibitor; concentration: 0.5 µM; baseline: control; quantity: remaining activity
Target: Ephrin type-A receptor 5 (EPHA5, Homo sapiens, UniProt P54756)
Chain of UniProt P54756 (whole entry, looked up): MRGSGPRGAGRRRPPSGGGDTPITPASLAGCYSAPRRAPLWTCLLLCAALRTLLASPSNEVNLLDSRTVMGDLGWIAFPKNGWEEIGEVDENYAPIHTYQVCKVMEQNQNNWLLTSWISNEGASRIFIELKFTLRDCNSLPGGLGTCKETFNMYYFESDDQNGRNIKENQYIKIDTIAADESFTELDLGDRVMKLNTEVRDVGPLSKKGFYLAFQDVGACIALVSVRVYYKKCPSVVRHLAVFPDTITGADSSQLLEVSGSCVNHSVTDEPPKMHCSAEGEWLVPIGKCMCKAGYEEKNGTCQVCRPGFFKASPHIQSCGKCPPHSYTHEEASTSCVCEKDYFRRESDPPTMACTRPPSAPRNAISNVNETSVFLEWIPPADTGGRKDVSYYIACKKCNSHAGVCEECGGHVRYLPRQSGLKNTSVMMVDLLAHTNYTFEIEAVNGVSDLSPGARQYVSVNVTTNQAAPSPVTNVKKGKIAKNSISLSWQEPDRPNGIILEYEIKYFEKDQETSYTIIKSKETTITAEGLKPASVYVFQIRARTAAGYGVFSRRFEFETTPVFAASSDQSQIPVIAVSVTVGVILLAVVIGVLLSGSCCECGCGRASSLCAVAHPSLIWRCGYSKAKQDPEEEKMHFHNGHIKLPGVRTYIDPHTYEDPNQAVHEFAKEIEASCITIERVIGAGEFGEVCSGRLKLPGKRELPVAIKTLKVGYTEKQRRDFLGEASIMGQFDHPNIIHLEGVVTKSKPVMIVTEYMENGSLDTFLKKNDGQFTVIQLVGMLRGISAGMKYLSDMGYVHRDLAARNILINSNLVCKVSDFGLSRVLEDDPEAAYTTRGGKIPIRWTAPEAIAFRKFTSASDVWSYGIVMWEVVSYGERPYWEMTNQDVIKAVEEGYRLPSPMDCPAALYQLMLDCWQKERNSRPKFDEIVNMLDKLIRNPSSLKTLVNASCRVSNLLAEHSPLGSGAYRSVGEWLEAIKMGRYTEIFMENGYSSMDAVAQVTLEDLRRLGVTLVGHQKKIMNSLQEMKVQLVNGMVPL
O=C(Nc1cccc(Nc2cc(Nc3cccc(C(F)(F)F)c3)ncn2)c1)C1CC1: 106%
N#CC(C#N)=C(N)/C(C#N)=C/c1ccc(O)cc1: 94.3%
O=C1NC(=O)C(c2cn(CCCn3ccnc3)c3ccccc23)=C1Nc1ccccc1: 96.1%
COc1ccc(OC)c2c(=S)c3ccccc3[nH]c12: 114%
CC(C)[C@H](CO)Nc1nc(Nc2cc(N)cc(Cl)c2)c2ncn(C(C)C)c2n1: 64%
O=c1c2ccccc2[nH]c(=S)n1CCN1CCC(=C(c2ccc(F)cc2)c2ccc(F)cc2)CC1: 112%
NCCNc1ncc(C(N)=O)c(Nc2cccc(C(F)(F)F)c2)n1: 84.6%
Cn1sc(=O)n(Cc2ccccc2)c1=O: 103%
Cc1nc(-c2ccccc2)c(-c2ccncc2)o1: 91.4%
COc1cc2ncnc(Nc3ccc(F)c(Cl)c3)c2cc1OCCCN1CCOCC1: 95.8%
Nc1ncnc2n[nH]c(Nc3ccc(F)cc3)c12: 87%
Nc1ccc2ncnc(NCCc3ccc(Oc4ccccc4)cc3)c2c1: 102%
COc1cc2ncnc(Nc3ccc(Oc4ccccc4)cc3)c2cc1OC: 85.3%
Nc1[nH]nc2nc3ccccc3nc12: 90.3%
O=C1NC(=O)C(c2cn(CCCO)c3ncccc23)=C1c1cnccn1: 99.4%

Study 3 — read-out: ligand displacement; concentration: 10 µM; quantity: inhibition
Target: 5-hydroxytryptamine receptor 7 (HTR7, Homo sapiens, UniProt P34969)
Chain of UniProt P34969 (whole entry, looked up): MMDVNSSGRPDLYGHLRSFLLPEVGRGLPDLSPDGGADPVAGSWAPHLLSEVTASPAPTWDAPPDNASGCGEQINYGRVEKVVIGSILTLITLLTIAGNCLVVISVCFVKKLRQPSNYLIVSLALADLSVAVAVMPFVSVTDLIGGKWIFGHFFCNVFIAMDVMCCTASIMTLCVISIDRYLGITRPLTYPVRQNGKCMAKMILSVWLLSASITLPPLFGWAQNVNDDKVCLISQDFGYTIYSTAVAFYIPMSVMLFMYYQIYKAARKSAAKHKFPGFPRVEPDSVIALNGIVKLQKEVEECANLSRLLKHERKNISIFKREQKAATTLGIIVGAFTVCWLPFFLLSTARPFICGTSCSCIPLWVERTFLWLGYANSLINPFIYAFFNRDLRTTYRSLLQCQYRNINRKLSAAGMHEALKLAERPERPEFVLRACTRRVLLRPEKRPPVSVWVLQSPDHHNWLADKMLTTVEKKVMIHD
Cn1cc(Cl)c2c(Oc3c(F)cc(Nc4cc(Cl)nc(N)n4)cc3F)ccnc21: -1.63%
CCOc1ccc(S(=O)(=O)Nc2ccc(Cl)cc2C#Cc2cnc(C(=O)O)cc2OC)c2ncccc12: 2.02%
CN(C)C(=O)c1sc2nc(N3CCC(S(C)(=O)=O)CC3)cc(C(F)(F)F)c2c1N: 2.32%
c1ccc(C2CCN(c3cnc4c(N5CCOCC5)nccn34)CC2)cc1: 20.2%
Cn1nc(C(=O)NCc2ccc(C(=O)O)cc2)cc1-c1ccc2[nH]ccc2c1: -4.31%
CN1CCN(C(=O)C(C)(C)c2ccc(C(=O)Nc3cn4cc(-c5cc(C(C)(C)C)cc(C(C)(C)C)c5)ccc4n3)cc2)CC1: 45.2%
O=C(N[C@H]1CCCCC/C=C\C2C[C@@]2(C(=O)O)NC(=O)[C@@H]2C[C@@H](Oc3ccncc3)CN2C1=O)OC1CCCC1 (stereo partly shown): -3.24%

Study 4 — cell line: HaCaT; concentration: 100 µM; time: 36 h; quantity: viability
NC(=O)c1ncn([C@@H]2O[C@H](CO)[C@@H](O)[C@H]2O)n1: 70.4%
CC1=C(/C=C/C(C)=C/C=C/C(C)=C\C(=O)O)C(C)(C)CCC1: 89.1%
COC1=CC(=O)C[C@@H](C)[C@]12Oc1c(Cl)c(OC)cc(OC)c1C2=O: 51.9%
CCOC(=O)c1c(CSc2ccccc2)n(C)c2cc(Br)c(O)c(CN(C)C)c12: 4.38%
CCN(CC)CCNC(C(=O)OCCC(C)C)c1ccccc1 (stereo not shown): 67.8%
CC1(C)S[C@@H]2[C@H](NC(=O)Cc3ccccc3)C(=O)N2[C@H]1C(=O)O: 93%
